# Measured values gathered from unrelated publications.
# Numbers after ± are the reported error.
# CNR1: Cannabinoid receptor 1 (CNR1, Homo sapiens, UniProt P21554)
# Sequence of UniProt P21554 (whole entry, unmodified, looked up): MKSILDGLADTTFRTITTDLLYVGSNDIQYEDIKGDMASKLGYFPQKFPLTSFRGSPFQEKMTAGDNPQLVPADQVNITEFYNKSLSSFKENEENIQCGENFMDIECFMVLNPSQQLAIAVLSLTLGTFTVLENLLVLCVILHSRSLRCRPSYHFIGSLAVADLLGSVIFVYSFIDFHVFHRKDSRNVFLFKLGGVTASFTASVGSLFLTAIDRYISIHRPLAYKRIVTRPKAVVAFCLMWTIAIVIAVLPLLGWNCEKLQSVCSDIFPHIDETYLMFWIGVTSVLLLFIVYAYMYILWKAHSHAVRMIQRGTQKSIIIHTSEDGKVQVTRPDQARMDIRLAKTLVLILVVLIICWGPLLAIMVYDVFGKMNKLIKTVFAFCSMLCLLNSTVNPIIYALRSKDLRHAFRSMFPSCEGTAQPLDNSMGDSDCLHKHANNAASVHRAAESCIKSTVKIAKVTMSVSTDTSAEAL
# CNR1 V171A: Cannabinoid receptor 1 (CNR1, Homo sapiens, UniProt P21554, V171A)
Compound,target,assay,conditions,how to read,Emax
CCCCCn1ccc(C(=O)NC(C)(C)c2ccccc2C)n1,CNR1,"calcium signal, agonist, fluorescence",,,42%
CCCCCn1cc(C(=O)c2ccc3c(c2)CC(C)(C)C3)c2ccccc21,CNR1,"cAMP inhibition, agonist, CAMYEL BRET biosensor",with: forskolin 10 µM,reference: reference agonist at wild type,80.9 ± 12.5%
COc1ccccc1C(C[N+](=O)[O-])c1c(-c2ccccc2)[nH]c2ccccc12 (stereo not shown),CNR1 V171A,"Gαi1-γ2 dissociation, BRET",,,67.4 ± 6.48%
CCCCCn1ccc(C(=O)NC(C)(C)c2ccccc2)n1,CNR1,"calcium signal, agonist, fluorescence",,,61%
CCCCCn1cc(C(=O)c2cccc3ccccc23)c2ccccc21,CNR1,"Gαi1 activation, agonist, BRET",,reference: reference agonist,144 ± 9.2%
COC(=O)[C@@H](NC(=O)c1nn(Cc2ccc(F)cc2)c2cc(OCCCCNC(N)=O)ccc12)C(C)(C)C,CNR1,"β-arrestin-1 recruitment, agonist",,reference: FUB,110 ± 10%
Cc1ccc2c(C(C[N+](=O)[O-])c3cccs3)c(-c3ccccc3)[nH]c2c1 (stereo not shown),CNR1 V171A,"Gαi1-γ2 dissociation, BRET",,,67.4 ± 4.78%
CCOC(=O)C(CC)(CC)NC(=O)c1ccc(C2CC2)c(Cc2ccc(F)cc2)n1,CNR1,"cAMP, agonist",,,99%
CCCCCn1cc(C(=O)c2ccc3ccccc3c2)c2ccccc21,"CNR1 (Homo sapiens, UniProt P21554, H178A)","Gαi1 engagement, agonist, BRET",,reference: reference agonist at wild-type CB1,30.5 ± 2.6%
CCCCCn1ccc(C(=O)N[C@H](C(N)=O)C(C)C)n1,CNR1,"calcium signal, agonist, fluorescence",,,35%
CCCCCn1cc(C(=O)c2cccc3c2CC(C)(C)C3)c2ccccc21,"CNR1 (Homo sapiens, UniProt P21554, F174A)","Gαi1 engagement, agonist, BRET",,reference: reference agonist at wild-type CB1,149 ± 3.4%
CCCCCn1ccc(C(=O)N[C@@H](C)c2ccccc2)n1,CNR1,"calcium signal, agonist, fluorescence",,,28%
O=[N+]([O-])CC(c1ccco1)c1c(-c2ccccc2)[nH]c2ccccc12 (stereo not shown),CNR1,"Gαi1-γ2 dissociation, BRET",,,100 ± 6.15%

# Some of these lines once more:
Compound,target,assay,conditions,how to read,Emax
O=[N+]([O-])CC(c1ccco1)c1c(-c2ccccc2)[nH]c2ccccc12 (stereo not shown),CNR1,"Gαi1-γ2 dissociation, BRET",,,100 ± 6.15%
